Published values pooled from the literature.
Each numbered part is a random draw from the data of one study; scales do not carry over between parts. Substitutions count along the parent as printed.

Sample 1 — technique: protein-binding microarray; molecule type: double-stranded DNA, one strand shown; matrix: in vitro; concentration: not given; direction: higher = stronger binding
Target: Max dimerization protein 1, bHLH-zipper, MAX partner unstated (MXD1, Homo sapiens, UniProt Q05195, residues 56-136)
Notes: k-mer, scored over probes, only values ≥0.25
Construct (chain): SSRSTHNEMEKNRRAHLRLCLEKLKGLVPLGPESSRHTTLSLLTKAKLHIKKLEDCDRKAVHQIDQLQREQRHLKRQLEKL
| Oligonucleotide | E-score |
| --- | --- |
| ACGCGTGA | 0.327 |
| AGCGTGGG | 0.352 |
| AATCATGT | 0.374 |
| ACAGGTGA | 0.254 |
| CATGCACA | 0.396 |
| ACATGATC | 0.359 |
| GTGGGGAA | 0.323 |
| CGTGGAAG | 0.312 |
| AGGAGGGG | 0.334 |
| ACCATGCA | 0.396 |
| GCACGTGC | 0.497 |
| CGTGGCCA | 0.295 |
| CATGGTCG | 0.32 |

Sample 2 — technique: protein binding microarray; molecule type: double-stranded DNA, one strand shown; matrix: in vitro; concentration: not given; baseline: not given; direction: higher = stronger binding
Target: Histone acetyltransferase KAT6A, both winged helices, GST fusion (KAT6A, Homo sapiens, UniProt Q92794, residues 1-181)
Notes: 8-mer, flanks averaged, mean of 2 arrays, mostly near background
Construct (chain): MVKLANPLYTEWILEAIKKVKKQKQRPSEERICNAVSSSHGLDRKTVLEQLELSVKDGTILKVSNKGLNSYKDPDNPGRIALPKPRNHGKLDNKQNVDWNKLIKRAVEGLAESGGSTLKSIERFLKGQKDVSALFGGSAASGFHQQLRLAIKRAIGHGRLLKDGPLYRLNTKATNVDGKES
| Oligonucleotide | E-score |
| --- | --- |
| GGCCTGCA | -0.0536 |
| CATGAGGG | -0.192 |
| CAACTCTA | -0.155 |
| CATCGGAG | -0.0864 |
| AATATCTG | -0.149 |
| AGAGGAAT | -0.212 |
| GTACCAAC | -0.0255 |
| AAGTGCGC | 0.237 |
| AGAGCCTG | -0.174 |
| ATCAGAAC | -0.0195 |
| AGGGCCAC | -0.156 |
| ATGTTTTA | -0.141 |
| CCAGCACC | -0.156 |
| ACATCCCA | -0.162 |
| CGCAGCGA | 0.138 |
| GGGGATGA | -0.138 |
| AGCGTATG | 0.0931 |
| CACCATCC | -0.133 |
| AGGACTGG | -0.194 |
| TATATGGA | -0.205 |
| ACGAAGAA | -0.0577 |
| CCCCCATC | -0.223 |
| CACTGTTC | -0.165 |
| AGTGTTCA | 0.0231 |
| CAAACGTC | 0.119 |

Sample 3 — technique: RNA Bind-n-Seq; molecule type: RNA; matrix: in vitro; concentration: 100 nM; baseline: input RNA pool; direction: higher = stronger binding
Target: RING finger protein unkempt homolog, zinc fingers 1-6, SBP tag (UNK, Homo sapiens, UniProt Q9C0B0, residues 30-357)
Sequence of UniProt Q9C0B0 (30-357, looked up): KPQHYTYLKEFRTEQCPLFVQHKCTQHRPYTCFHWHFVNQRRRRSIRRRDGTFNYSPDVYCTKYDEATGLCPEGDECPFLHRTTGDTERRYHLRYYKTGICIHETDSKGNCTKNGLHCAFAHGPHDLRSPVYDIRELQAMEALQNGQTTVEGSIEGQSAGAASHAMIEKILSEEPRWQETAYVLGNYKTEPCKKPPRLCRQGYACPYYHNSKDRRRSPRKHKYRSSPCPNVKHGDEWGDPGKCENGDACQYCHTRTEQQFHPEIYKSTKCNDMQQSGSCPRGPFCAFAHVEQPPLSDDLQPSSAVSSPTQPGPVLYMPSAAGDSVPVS
Notes: RNA with constant flanks, vertebrate orthologous sites, ends assumed
Constant ends, left off below: GGGAGUUCUACAGUCCGACGAUC … CAACAGAGGAUUGAGCAUCA
| Oligonucleotide | bound/input enrichment |
| --- | --- |
| UUGUUUUGUGCAGGGUAUUCUCUGUACAAAUUUGUUGUGGUUAUAAAACAAUUAGCAAAACAGCUUACAUUUGUAUUUAUUUUCUAUUCCAUACCUCUGCCCCAUGUUUUUUCUCCUCAA | 0.57 ratio |
| UUCAGUCCCCUGGGCUGGGACACUUGUUUUUUAACGUCUUGAAAUUUAACUCUGUGCUUGUGGAAGACUGUAACCUUUUUGUCUUUUUUUUUUUUAAACCAUCAAUCUCCACCUCCAGUG | 0.701 ratio |
| AUUCAAACCCGUGGUGCCCUGGCCUCACGUGGAAGGCGUAGAAGUGGACUUGGAGUCUAUUCGAAGAAGGAACAAGGCCAGACAUGAACAAGAGCGCCGCUCCGGAGGAGAGGACCAGAA | 0.213 ratio |
| AAAUGGCUUCUGCUCCAUUAAGAAGAGUAAAAAUAGUCCCGCAACUAUAAAGCUCCUCAAUAGCUAUUUUUAAAAUAAAAAUGUUUAAAUUUUGUAAAUCACCUGAUGCCACUACACGAC | 2.25 ratio |
| UUCAGGCACAACUGACUGGUUCACAGCAUUCCUUACAUAGUUACCUAUCAAAUGCUAGUGUAGUUAAUUUUCAGGAAACAACCAGGCAGUCAUCUUUAUCCUGUAGCUCAGUUGGAGAGU | 1.39 ratio |
| ACAGCCCUUGUGAGAGGGAGUUUGGGGCAGCCCAGGGUGUGGCCCUCAGCUGUUUCGAUCCAGUUGUUUUUUUUUAAACUUACUGUAUUUAUUACGACGAUGAUGACUCCCCCGUGCACA | 0.235 ratio |
| UUUUAUUGAUCAGGUCUGUAAAUGUGUACUAAAAAAAUCAGAGUUUAUUUAUGAAUUGAAUAGUUUAUUUAAAAAGAAGGUCUUUCCUCAUCCAUAUUGUGGUAUGCAUUAAUUCCAUUU | 0.421 ratio |
| CAAUUCAAUGGUUGAGGGUUCAGAACUCAAAAAGGUUCGCUCCAACUCUAGGAUUUACCAUAGGUAUUUUUUAUUGGAUGCUGACAUGCAGAGCCUGAGGUGGGAACCAUCUAAGAAGGA | 0.271 ratio |

Sample 4 — technique: RNA Bind-n-Seq; molecule type: RNA; matrix: in vitro; concentration: 20 nM; notes: 6-mer, flanks averaged, single round; with: 150 mM LiCl; baseline: input library; direction: higher = stronger binding
Target: TAR DNA-binding protein 43, full length, His tag (TARDBP, Homo sapiens, UniProt Q13148, residues 1-414)
| Oligonucleotide | 6-mer enrichment (R) |
| --- | --- |
| UGGAAC | 0.964 |
| UGCAAU | 0.922 |
| UUAAUC | 0.924 |
| GCAUGC | 1.01 |
| GCUCUG | 0.874 |
| UCCACC | 0.966 |
| GAGCAC | 0.901 |
| AUAUUC | 0.915 |
| CCCCCA | 1.34 |
| CAGGCC | 0.926 |
| AUAGCA | 0.863 |
| GACCUU | 0.92 |

Sample 5 — target: CCNA1, cyclin fold, Cln2 fusion (human); technique: yeast growth competition, sequencing; matrix: yeast; notes: weak parent motif; baseline: not given; direction: higher = stronger binding
Starting sequence: E2F1 docking peptide (human); PPVKRRLDLETDH; partner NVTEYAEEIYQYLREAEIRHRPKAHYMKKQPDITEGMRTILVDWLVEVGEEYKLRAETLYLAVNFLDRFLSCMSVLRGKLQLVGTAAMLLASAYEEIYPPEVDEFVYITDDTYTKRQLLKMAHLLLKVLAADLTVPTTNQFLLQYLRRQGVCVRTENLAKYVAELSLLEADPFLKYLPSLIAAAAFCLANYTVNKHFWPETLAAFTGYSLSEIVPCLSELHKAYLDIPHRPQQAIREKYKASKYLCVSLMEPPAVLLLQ
| Variant | normalised enrichment score |
| --- | --- |
| PPVKRRLDLETDW [H13W] | 0.2 |
| PMVKRRLDLETDH [P2M] | 0.0552 |
| PPVKRRLELETDH [D8E] | 0.172 |
| PPVKRRLDLETDL [H13L] | 0.398 |
| VPVKRRLDLETDH [P1V] | 0.329 |
| LPVKRRLDLETDH [P1L] | 0.798 |
| PPQKRRLDLETDH [V3Q] | 0.214 |
| PPVKRRNDLETDH [L7N] | 0.282 |
| PPVKRVLDLETDH [R6V] | 0.129 |
| PPEKRRLDLETDH [V3E] | 0.527 |
| PPVKRRLDLETDM [H13M] | 0.613 |
| PPVKRRTDLETDH [L7T] | 0.418 |
| PPVKRRLDFETDH [L9F] | 1.41 |
| NPVKRRLDLETDH [P1N] | 0.649 |
| PPVKRRLRLETDH [D8R] | 0.374 |
| PPAKRRLDLETDH [V3A] | 0.749 |
| PPVKRRLDLETDY [H13Y] | 0.617 |

Sample 6 — technique: RNA Bind-n-Seq; molecule type: RNA; matrix: in vitro; concentration: 200 nM; notes: whole 134-nt RNA, ends assumed; with: 150 mM KCl; baseline: input library; direction: higher = stronger binding
Target: Ras GTPase-activating protein-binding protein 1, full length (G3BP1, Homo sapiens, UniProt Q13283)
Sequence of UniProt Q13283 (whole entry, looked up): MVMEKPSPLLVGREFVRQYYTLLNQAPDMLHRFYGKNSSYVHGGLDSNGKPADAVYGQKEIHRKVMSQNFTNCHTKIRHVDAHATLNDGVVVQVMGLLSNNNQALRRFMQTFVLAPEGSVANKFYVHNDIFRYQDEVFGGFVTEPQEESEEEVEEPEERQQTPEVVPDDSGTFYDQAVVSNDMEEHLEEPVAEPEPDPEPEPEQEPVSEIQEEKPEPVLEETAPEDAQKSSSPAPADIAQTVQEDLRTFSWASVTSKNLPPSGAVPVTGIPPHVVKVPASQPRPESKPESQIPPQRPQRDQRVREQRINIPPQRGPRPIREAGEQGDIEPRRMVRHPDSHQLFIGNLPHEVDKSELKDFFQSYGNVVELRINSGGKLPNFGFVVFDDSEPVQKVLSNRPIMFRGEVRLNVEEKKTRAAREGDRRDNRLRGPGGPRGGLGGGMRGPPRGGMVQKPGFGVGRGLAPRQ
Constant ends, left off below: GGGAGUUCUACAGUCCGACGAUC … UGGAAUUCUCGGGUGUCAAGG
| Oligonucleotide | log2 enrichment |
| --- | --- |
| UCAAGUCCUGUGCUACACAUCGUAUGUACCGAAUCGGGAAAGGGAAAGGAAAGGGAAAGUAUUAUGUUACGCCGUUCGGAUCUGCACUUC | -0.717 |
| GUCCUGUGCUACACAUCGUAUGUACCGAAUCGGGGAAAAAAAGGGGUUUGGGGUGGGGAAAGUAUUAUGUUACGCCGUUCGGAUCUGCAC | 0.29 |
| GCAGGAAGUAAAAACAAAUGGAAAUGCUUCGGAUAGUGGCAGGGGUAGGGGUUGCUAAGGAAAGGGUGGGAUGGGAGUGGGUAAAGAGUU | 0.887 |
| UAACUUUAGAGGAGGAUCUGAUGGAUAUAGCAGUGGACGUGGAUUUGGGGAUGGCUAUAAUGGGUAUGGAGGAGGACCUGGAGGUGGCAA | 0.479 |
| AAGUCCUGUGCUACACAUCGUAUGUACCGAAUCGGGGAAAGGGGAGGGGAAAGGGGAAAGUAUUAUGUUACGCCGUUCGGAUCUGCACUU | 0.373 |
| CCUGUGCUACACAUCGUAUGUACCGAAUCGGUUUUUUUGGGUUUUUUUGGUUUUUUUGGGGAAAGUAUUAUGUUACGCCGUUCGGAUCUG | -1.03 |
| AGUCCUGUGCUACACAUCGUAUGUACCGAAUCGGGGUGGGGUGGGGUUUUUUUGGGGAAAGUAUUAUGUUACGCCGUUCGGAUCUGCACU | 0.607 |
| CACAGACAACACGCACCCACACAGACACAAAAGGAAGGGGUUGGGAUGGGGACAGGGUGCACAGCAGGGCGGGGUAGGACCCCAGCCCCU | 1.76 |
| CACAGACAACACGCACCCACACAGACACAGAGGGAAGGGGUUGGGAUGGGGGCAGGGUGCACAGCAGGGCGGGGUAGGACCCCAGCCCCU | 1.75 |

Single results of other studies
| Molecule | target | test | test system | conditions | scale | quantity | value |
| --- | --- | --- | --- | --- | --- | --- | --- |
| PhoQ, residues 284 288 289 292 302 303 TNSAEL | PhoP, residues 12 14 15 18 19 SGWQI (Escherichia coli, UniProt P23836) | Sort-seq, refers to: YFP reporter | E. coli | PhoQ-PhoP variant library, with: 10 µM Mg2+ | baseline: high Mg2+ state, higher = stronger signaling | fold induction | 1.85 |
